Experimental data pooled from the literature.
Every numbered part comes from another study and shows a few of its results, in no order. Changes are numbered by the printed parent chain.
UniProt Q9Y385, sequence (whole entry, looked up): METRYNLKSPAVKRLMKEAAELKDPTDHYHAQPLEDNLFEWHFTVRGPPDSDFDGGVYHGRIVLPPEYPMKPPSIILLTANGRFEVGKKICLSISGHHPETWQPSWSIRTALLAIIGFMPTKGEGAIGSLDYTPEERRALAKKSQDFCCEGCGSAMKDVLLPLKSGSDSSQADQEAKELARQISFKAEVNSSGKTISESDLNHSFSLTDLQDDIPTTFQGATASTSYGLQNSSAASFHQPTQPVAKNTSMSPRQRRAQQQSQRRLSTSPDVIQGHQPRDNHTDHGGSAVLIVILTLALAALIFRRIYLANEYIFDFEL
UniProt Q9NPD8, sequence (whole entry, looked up): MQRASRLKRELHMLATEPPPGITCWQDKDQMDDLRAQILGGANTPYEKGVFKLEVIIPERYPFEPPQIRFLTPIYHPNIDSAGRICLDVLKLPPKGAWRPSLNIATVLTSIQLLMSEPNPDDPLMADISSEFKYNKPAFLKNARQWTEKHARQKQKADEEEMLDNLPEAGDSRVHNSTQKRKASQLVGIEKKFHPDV
UniProt O00762, sequence (whole entry, looked up): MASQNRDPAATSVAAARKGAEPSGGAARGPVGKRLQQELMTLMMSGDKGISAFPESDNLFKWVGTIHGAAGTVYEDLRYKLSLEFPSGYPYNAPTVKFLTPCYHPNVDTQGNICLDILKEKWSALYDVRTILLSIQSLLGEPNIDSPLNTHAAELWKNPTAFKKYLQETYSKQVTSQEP
UniProt P61081, sequence (whole entry, looked up): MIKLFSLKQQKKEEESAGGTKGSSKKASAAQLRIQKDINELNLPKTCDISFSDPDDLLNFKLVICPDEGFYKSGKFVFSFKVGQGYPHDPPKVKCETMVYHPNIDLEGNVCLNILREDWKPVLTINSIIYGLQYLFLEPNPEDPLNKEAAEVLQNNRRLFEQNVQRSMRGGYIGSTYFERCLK
UniProt P62253, sequence (whole entry, looked up): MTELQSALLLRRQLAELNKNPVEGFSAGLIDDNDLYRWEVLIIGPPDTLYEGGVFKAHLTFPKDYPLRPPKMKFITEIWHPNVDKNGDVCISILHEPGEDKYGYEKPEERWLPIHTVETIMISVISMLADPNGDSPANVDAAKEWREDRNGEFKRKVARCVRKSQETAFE
UniProt Q9H832, sequence (whole entry, looked up): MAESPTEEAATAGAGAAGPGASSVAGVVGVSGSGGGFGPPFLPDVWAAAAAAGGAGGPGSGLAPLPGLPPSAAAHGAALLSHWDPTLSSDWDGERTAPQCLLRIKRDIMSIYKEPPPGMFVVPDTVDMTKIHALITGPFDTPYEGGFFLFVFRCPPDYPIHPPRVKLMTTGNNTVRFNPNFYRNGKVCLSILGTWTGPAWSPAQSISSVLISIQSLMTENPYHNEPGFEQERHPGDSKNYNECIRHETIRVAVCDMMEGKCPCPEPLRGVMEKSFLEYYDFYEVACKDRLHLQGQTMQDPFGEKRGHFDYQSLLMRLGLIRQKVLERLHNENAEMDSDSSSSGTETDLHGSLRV
UniProt Q8N2K1, sequence (whole entry, looked up): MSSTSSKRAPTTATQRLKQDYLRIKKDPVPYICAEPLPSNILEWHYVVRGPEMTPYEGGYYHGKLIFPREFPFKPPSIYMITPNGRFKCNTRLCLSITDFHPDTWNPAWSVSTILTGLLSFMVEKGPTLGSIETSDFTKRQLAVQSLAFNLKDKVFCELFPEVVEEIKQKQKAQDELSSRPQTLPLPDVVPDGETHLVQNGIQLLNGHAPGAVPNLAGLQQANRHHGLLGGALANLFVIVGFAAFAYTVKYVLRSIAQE
UniProt P68036, sequence (whole entry, looked up): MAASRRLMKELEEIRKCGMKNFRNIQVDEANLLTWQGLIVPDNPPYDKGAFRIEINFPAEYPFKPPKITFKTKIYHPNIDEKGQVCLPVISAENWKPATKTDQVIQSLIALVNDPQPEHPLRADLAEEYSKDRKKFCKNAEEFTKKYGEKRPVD

Block 1
Target: Sal-like protein 4, full length isoform A (SALL4, Homo sapiens, UniProt Q9UJQ4, residues 1-1053)
UniProt Q9UJQ4, sequence (whole entry, looked up): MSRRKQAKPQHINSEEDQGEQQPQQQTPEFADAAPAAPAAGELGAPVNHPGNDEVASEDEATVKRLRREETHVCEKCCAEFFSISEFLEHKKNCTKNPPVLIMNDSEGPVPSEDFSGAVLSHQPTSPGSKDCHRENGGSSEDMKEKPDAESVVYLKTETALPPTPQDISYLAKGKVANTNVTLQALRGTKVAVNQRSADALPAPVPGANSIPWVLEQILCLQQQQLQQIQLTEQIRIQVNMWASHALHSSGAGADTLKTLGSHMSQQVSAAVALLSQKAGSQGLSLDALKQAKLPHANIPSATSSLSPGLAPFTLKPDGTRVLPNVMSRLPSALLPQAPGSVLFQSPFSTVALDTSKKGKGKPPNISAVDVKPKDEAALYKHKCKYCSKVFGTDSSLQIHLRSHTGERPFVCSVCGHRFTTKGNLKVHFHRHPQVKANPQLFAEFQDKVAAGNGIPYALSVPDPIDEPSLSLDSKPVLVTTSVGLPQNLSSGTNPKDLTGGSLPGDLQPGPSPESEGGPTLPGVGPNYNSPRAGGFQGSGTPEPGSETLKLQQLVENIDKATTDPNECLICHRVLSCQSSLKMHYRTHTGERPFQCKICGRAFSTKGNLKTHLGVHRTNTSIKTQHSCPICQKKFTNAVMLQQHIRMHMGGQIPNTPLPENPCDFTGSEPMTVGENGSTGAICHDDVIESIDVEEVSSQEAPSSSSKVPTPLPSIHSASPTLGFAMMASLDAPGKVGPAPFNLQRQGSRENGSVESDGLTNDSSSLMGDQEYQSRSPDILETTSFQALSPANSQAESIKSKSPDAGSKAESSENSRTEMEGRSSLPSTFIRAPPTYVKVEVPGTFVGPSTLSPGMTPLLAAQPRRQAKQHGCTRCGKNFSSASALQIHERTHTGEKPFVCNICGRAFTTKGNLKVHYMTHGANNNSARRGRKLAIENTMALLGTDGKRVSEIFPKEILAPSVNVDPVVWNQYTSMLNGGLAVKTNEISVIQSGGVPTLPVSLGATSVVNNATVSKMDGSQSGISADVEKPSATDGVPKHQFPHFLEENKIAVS
Technique: universal PBM
Form: double-stranded DNA, one strand shown
Sample: in vitro
Concentration: 600 nM
Notes: 8-mer, flanks averaged, mean of replicates
Direction: higher = stronger binding
| Oligonucleotide | E-score |
| --- | --- |
| GATTCCAC | 0.0191 |
| GCAGGTCC | -0.265 |
| GAGTAGGC | -0.204 |
| ACGGTCAA | -0.00728 |
| GGCATAAC | 0.161 |
| AGGGCTTC | -0.156 |
| CGTTACAC | -0.0456 |
| ACAGCAGC | -0.126 |
| CCTCAAGC | -0.256 |
| CCTCTAGC | -0.149 |
| CCGCAGAG | -0.347 |
| CCCGAAAC | -0.105 |
| CCCCTAAC | -0.182 |
| CGTAGCCA | -0.0459 |
| CGCTTTCA | 0.0747 |
| TATCCACA | 0.158 |
| CTATCAAC | 0.129 |
| AATGCTTC | 0.0582 |
| CTAACGGA | -0.0214 |
| CGAATGAA | 0.0908 |
| TGAAAGAA | 0.258 |
| GCGGAATA | 0.105 |
| ATCCAGCA | 0.0441 |
| GCCGAACC | -0.195 |
| AGTTCCCA | -0.0609 |

Block 2
Target: CCNE1, cyclin fold, Cln2 fusion (human)
Technique: yeast growth competition, sequencing
Sample: yeast
Notes: strong parent motif
Reference: not given
Direction: higher = stronger binding
Starting sequence: RBL2 docking peptide (human); STTRRRLFVENDS
| Variant | normalised enrichment score |
| --- | --- |
| R4V | 5.13 |
| L7W | -0.104 |
| R4S | 1.86 |
| F8N | 0.315 |
| N11V | 5.78 |
| V9A | 5.62 |
| S1I | 5 |
| D12S | 4.57 |
| T2C | 5.44 |
| F8P | 0.654 |
| V9P | 4.43 |
| T3K | 0.233 |
| S1R | 6.61 |
| R4C | 6 |
| D12R | 3.69 |
| R4P | 1.11 |
| R6I | 3.41 |
| R4T | 1.33 |
| L7K | -0.782 |
| D12Y | 4.48 |
| T2I | 5.12 |
| R4D | -0.912 |

Block 3
Sequence: B1 (TRIM8 RING domain)
Technique: yeast two-hybrid
Sample: yeast
Notes: mostly zero background
Reference: not given
Direction: higher = stronger interaction
B1: TRIM8 RING domain (UniProt Q9BZR9); chain WKNCFEEELICPICLHVFVEPVQLPCKHNFCRGCIGEAWAKDSGLVRCPECNQAYNQKPGLE
| target | lacZ reporter activity |
| --- | --- |
| UBE2J1 UBC core domain (UniProt Q9Y385) | 0 |
| UBE2G1 UBC core domain (UniProt P62253) | 0 |
| UBE2T UBC core domain (UniProt Q9NPD8) | 0 |
| UBE2J2 UBC core domain (UniProt Q8N2K1) | 0 |
| UBE2Z UBC core domain (UniProt Q9H832) | 0 |
| UBE2C UBC core domain (UniProt O00762) | 0 |
| BIRC6 UBC core domain (UniProt Q9NR09) | 0 |
| UBE2L3 UBC core domain (UniProt P68036) | 0 |
| UBE2M UBC core domain (UniProt P61081) | 0 |

Block 4
Target: ABI1, truncated, D143A, DHFR fusion (Arabidopsis thaliana)
Technique: DHFR PCA, deep sequencing
Sample: yeast
Notes: methotrexate growth selection, single substitutions
Together with: (+)-ABA 4.8 µM
Reference: wild-type fitted maximum
Direction: higher = stronger binding
Starting sequence: PYL1, truncated, DHFR fusion (Arabidopsis thaliana); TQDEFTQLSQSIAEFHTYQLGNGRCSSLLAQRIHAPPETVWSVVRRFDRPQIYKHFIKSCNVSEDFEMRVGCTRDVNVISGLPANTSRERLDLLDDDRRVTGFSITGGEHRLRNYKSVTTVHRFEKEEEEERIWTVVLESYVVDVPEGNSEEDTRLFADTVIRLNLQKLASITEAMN; partner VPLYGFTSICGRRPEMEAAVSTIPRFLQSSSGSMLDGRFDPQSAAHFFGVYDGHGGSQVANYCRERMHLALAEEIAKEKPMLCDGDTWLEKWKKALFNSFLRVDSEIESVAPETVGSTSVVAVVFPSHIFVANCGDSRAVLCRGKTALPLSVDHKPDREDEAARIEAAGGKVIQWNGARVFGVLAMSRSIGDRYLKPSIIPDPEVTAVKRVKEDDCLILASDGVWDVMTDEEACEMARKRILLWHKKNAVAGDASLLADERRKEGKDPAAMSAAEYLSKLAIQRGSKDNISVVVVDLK
| Variant | relative binding score [%] |
| --- | --- |
| Y141P | -1.12 |
| N165A | -3.36 |
| H55F | 61.1 |
| R45D | -2.1 |
| R155G | -0.235 |
| T135V | -0.00712 |
| F5P | 46.2 |
| F124M | 91.7 |
| D144S | 13.3 |
| V118Q | 17.4 |
| S104W | -16 |
| P146C | 8.21 |
| R90Q | 50.4 |
| T106P | 2.84 |
| E89V | 3.25 |
| Y53H | 38.5 |
| E109K | 43.2 |
| V100W | -11.9 |
| V161G | -2.6 |
| R113I | 59.7 |
| Q10A | 78.7 |
| T73G | 4.87 |
| N77V | 78.6 |
| G81F | -18.9 |
| F66E | 49.1 |

Block 5
Target: CEBPD, bZIP domain (human)
Technique: DHFR protein complementation
Sample: yeast
Notes: single substitutions, most at no-binding floor
Reference: wild-type JUN-FOS pair
Direction: higher = stronger binding
Starting sequence: JUN, bZIP domain (human); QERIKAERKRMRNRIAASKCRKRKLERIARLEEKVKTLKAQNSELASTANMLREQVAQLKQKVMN; partner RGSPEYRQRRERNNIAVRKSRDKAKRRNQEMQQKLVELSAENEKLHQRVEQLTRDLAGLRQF
| Variant | binding fitness |
| --- | --- |
| E44S | -1.38 natural log |
| K39V | -1.35 natural log |
| T48C | -1.39 natural log |
| N42A | -1.41 natural log |
| V56F | -1.33 natural log |
| R30Q | -1.34 natural log |
| L38V | -1.41 natural log |
| T48L | -1.35 natural log |
| K34E | -1.37 natural log |
| T37G | -1.4 natural log |
| E32H | -1.22 natural log |
| S47N | -1.34 natural log |
| T37I | -1.39 natural log |
| A46C | -1.45 natural log |
| K34C | -1.44 natural log |
| M51E | -1.35 natural log |
| A40V | -1.38 natural log |
| Q41I | -1.12 natural log |
| Q55V | -1.38 natural log |
| T48A | -1.36 natural log |
| L38C | -1.48 natural log |
| E54G | -1.42 natural log |
| L31I | -1.37 natural log |
| I28N | -1.29 natural log |
| A40S | -1.37 natural log |

Block 6
Target: RNA binding protein fox-1 homolog 2, RRM domain, GST-SBP tag (RBFOX2, Homo sapiens, UniProt O43251-10, residues 100-194)
Technique: RNA Bind-n-Seq
Form: RNA
Sample: in vitro
Concentration: 365 nM
Notes: natural RNA segment, single round, ends assumed
Reference: no-protein control
Direction: higher = stronger binding
| Oligonucleotide | RBNS enrichment (R) |
| --- | --- |
| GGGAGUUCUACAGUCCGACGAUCCAUAUGUUUGUUUAUUAAUAGGAUUUUAAAAAAAAUGAACAUCUUUUUAAAGCUGGGAAAUGUAUAUAAAUUCAGGUAUCAGUAUCAAUAAUAGACUGUUUCAUUGAAAGUGGAAUUCUCGGGUGCCAA | 0.729 |
| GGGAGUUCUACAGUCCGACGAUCGGUAGGUUGUCAGCAUGCUUGGCAUUCUUCUGUUUUCCUUACCGUUUUACAGACUAUGAAGCUGAGGGGGGAUGGUAGGCACAGAUGUGUGGCAACCCUGCUCUGUGCUCUGGAAUUCUCGGGUGCCAA | 2.69 |
| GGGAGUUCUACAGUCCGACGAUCCUGAUGCUGACCAGCCUGUUACAGAUACUUUCUACAACCAAAUUCAGAUUUAUUUUUUAUUAAGCAUUAUACCAUGGGCUGUCCUGUGCUCCUGUCACUCUUCAAAAACAUGGAAUUCUCGGGUGCCAA | 2.16 |
| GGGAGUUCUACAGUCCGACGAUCAUUGCUCUGUAGACCACGCUGGCUUCGAACUCACAGAGAUCUGUAUUGUCUCUGCCUCCUGAGUGCUGAGAUUAGAGGUUGUGUGCCAUCACCUCUGGGUACUUUUUUAUUGGAAUUCUCGGGUGCCAA | 0.557 |
| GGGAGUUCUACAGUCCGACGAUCUGCCCACUCCCUCAGGGCCCACAUGUCCUGCCACUCGCCACUCUGAGCACGAGUUCACCUUCCAGAUGUGGCCAGGGUGUGCCAGCUCCUCUCUCCUGUGCGUUGGAACCUGGAAUUCUCGGGUGCCAA | 0.455 |
| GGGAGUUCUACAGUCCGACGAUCCAUUGUAAUGCCCACCAACAUCCCAUCAAAGACAUAUAAUGUGCUGUAGUCCACAUUUUAACACUCAGCAAACAUUCACACAUUCUAAGUUCAACAGGGCUCUUUGAUGAUGGAAUUCUCGGGUGCCAA | 0.597 |
| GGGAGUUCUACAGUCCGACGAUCCCCUGACAACUGGGUUUGUCCUCCCUACUCCCACCCCAAGUGGUCAAUAAGUCUUAUUUGCAAAAGCCAUGAUCUUCAAGGGUGAGAGAAAAAUCUGAAGGUCAGCGGAGUGGAAUUCUCGGGUGCCAA | 0.376 |
| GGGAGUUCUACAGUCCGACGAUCCUCACUCCCACUAUCUCUACGGACACAUGCUCUCCGCCUUCCGGGACUAGCCACGGCCCCCAGGGCGGGUGUCCUGGUUUCACAGGCUCAGCCGGCCCUGACCCUUCCUGUGGAAUUCUCGGGUGCCAA | 0.376 |
| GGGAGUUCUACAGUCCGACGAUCCCUGUUUUGUGUCAGUUUGGUGUGAGGUGACAUGGAAAAAUGUUGAUGAUUGUAGAUUAAGCUGAAACAUAUAAUGAGAGCAAUGAGAACAAGUUUGUUUUGCCUGAUACUGGAAUUCUCGGGUGCCAA | 2.87 |
| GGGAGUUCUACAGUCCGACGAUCGCUUUGCUUGAGAAGACCCCAGGGAGGACUGUCUUCCACUGCCUGGACUCCUCUCAAGUUGAAGUCAUCGUCUUCAUCUUCCUCCGUAUCUUCUUCCCUCAACUUCUUCAUGGAAUUCUCGGGUGCCAA | 1.05 |
| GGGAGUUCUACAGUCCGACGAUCCCAUAGAGACAACCUGUGUGCUUUCCUGGAUUCCUGAUGAGUUCUGCCAUUUUCUACUUAAUUUCAAAGCCCAGUUUUAAGUAACUGGACUACACUGUUGACCUACCCAUUGGAAUUCUCGGGUGCCAA | 0.584 |
| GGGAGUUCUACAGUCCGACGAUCCCUUGCCUUUCCUUUCCUGAAACUCUUUCAACACAACUGUGUCUAUAUGACUACGGCUCAUGCUUCCAAGGUCAGCUCACAUGUGACCUCUGUGAGCUGUUCCCUCGCCUUGGAAUUCUCGGGUGCCAA | 1.15 |

A few entries again (block 1):
| Oligonucleotide | E-score |
| --- | --- |
| GATTCCAC | 0.0191 |
| TATCCACA | 0.158 |
| ACAGCAGC | -0.126 |
| GCAGGTCC | -0.265 |
| CCTCAAGC | -0.256 |
| CCGCAGAG | -0.347 |
| GAGTAGGC | -0.204 |
| TGAAAGAA | 0.258 |
| AATGCTTC | 0.0582 |
| CTAACGGA | -0.0214 |
| AGGGCTTC | -0.156 |
| GGCATAAC | 0.161 |
| CCCGAAAC | -0.105 |
| CGCTTTCA | 0.0747 |
